{"data": "Results of several laboratories", "note": "Each numbered part is a random draw from the data of one study; scales do not carry over between parts."}
{"data": "Block 1", "target": "Eukaryotic initiation factor 4A-I (EIF4A1, Homo sapiens, UniProt P60842, residues 1-406, full length assumed)", "method": "RNA Bind-n-Seq", "form": "RNA", "sample": "in vitro", "tested at": "15 pmol", "setting": "4-mer, random 30-nt RNA, single round", "together with": "3 µM RocA, 2 mM AMP-PNP", "reference": "mean of 4-mers", "direction": "higher = stronger binding", "sequence of UniProt P60842 (whole entry, looked up)": "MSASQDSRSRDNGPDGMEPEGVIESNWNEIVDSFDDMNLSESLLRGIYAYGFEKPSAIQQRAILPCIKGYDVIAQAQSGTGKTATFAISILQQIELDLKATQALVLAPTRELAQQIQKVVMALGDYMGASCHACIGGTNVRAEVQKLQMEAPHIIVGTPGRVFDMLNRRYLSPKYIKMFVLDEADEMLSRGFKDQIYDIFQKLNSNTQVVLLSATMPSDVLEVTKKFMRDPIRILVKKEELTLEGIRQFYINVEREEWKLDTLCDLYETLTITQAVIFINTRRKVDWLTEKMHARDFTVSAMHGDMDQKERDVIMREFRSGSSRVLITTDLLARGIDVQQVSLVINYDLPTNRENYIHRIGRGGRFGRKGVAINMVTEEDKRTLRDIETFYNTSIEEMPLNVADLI"}
{"Strand": "UUCU", "4-mer enrichment Z-score": -0.684}
{"Strand": "ACGU", "4-mer enrichment Z-score": -0.428}
{"Strand": "UGAG", "4-mer enrichment Z-score": 1.87}
{"Strand": "UCUC", "4-mer enrichment Z-score": -1.31}
{"Strand": "AGAC", "4-mer enrichment Z-score": -0.32}
{"Strand": "CGCG", "4-mer enrichment Z-score": 0.486}
{"Strand": "UUAA", "4-mer enrichment Z-score": 0.492}
{"Strand": "GUUC", "4-mer enrichment Z-score": -0.794}
{"data": "Block 2", "target": "Interferon regulatory factor 7, full length, phosphomimetic (IRF7, Homo sapiens, UniProt Q92985, residues 1-503, S101K/S471D/S472D/S475D/S476D/S477D/S483D/S484D/S487D)", "method": "protein-binding microarray", "form": "double-stranded DNA, one strand shown", "sample": "in vitro", "tested at": "250 nM", "setting": "60-bp whole probe", "together with": "salmon DNA 0.4 mg/ml", "reference": "random background probes", "direction": "higher = stronger binding", "all sequences stand within": "GCCTAGCAC … GTCTTGATTCGCTTGACGCTGCTG", "Target sequence (chain)": "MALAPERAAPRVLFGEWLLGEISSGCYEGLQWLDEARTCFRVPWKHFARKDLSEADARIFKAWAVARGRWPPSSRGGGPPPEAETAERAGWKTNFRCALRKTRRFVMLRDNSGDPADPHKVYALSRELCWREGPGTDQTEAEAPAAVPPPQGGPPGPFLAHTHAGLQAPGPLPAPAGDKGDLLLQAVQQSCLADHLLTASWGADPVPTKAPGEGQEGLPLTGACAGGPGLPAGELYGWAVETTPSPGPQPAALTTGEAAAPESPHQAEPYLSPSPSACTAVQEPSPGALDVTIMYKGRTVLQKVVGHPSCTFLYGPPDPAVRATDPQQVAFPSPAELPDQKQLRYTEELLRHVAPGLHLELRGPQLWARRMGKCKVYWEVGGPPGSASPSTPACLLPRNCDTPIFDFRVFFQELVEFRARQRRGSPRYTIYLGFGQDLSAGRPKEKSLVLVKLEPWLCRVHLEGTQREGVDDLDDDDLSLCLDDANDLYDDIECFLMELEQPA"}
{"Strand": "GACGGTTTCCTTATCTTGACGTGCTAG", "log fluorescence [z-score]": 2.73}
{"Strand": "CTCTATACCCATGTAGAGAGGTGCTAG", "log fluorescence [z-score]": 1.41}
{"Strand": "TCATTCTTTTTTTTCTTACTGTGCTAG", "log fluorescence [z-score]": 1.29}
{"Strand": "TTAGATCTCAGTCTTGATTAGTGCTAG", "log fluorescence [z-score]": -0.047}
{"Strand": "TCACTGCTACCCTCTGAAACTGTGCTA", "log fluorescence [z-score]": -0.756}
{"Strand": "GACTGACTGGACTTTCGGGACGTGCTA", "log fluorescence [z-score]": -0.397}
{"Strand": "GTCGGTTTCGGGTTTCGGGACGTGCTA", "log fluorescence [z-score]": 12.3}
{"Strand": "GACGGTATCGACTGTCGGGACGTGCTA", "log fluorescence [z-score]": -0.48}
{"data": "Block 3", "target": "Centromere-binding protein 1, full length, His-tagged (CBF1, Saccharomyces cerevisiae, UniProt P17106, residues 1-351)", "method": "competition protein-binding microarray", "form": "double-stranded DNA, one strand shown", "sample": "in vitro", "tested at": "2 µM", "setting": "whole 60-bp probe, lowest competitor level", "together with": "Pho4 competitor, 0.05 µM", "direction": "higher = stronger binding", "all sequences stand within": "… GTCTTGATTCGCTTGACGCTGCTG", "sequence of UniProt P17106 (whole entry, looked up)": "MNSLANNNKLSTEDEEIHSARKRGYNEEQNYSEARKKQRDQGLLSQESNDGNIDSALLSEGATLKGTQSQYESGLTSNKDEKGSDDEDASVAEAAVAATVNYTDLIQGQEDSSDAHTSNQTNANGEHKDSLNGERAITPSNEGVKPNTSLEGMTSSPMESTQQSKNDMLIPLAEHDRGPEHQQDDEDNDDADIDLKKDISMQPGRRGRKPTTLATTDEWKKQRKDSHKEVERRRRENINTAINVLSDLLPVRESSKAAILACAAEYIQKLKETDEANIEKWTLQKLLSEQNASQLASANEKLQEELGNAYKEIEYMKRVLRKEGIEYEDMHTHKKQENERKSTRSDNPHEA"}
{"Strand": "CTTCTGTAAATTTGGTTAGTGGGTGGACGCGCCCCG", "fluorescence intensity": "77.4 a.u."}
{"Strand": "GTCTTGTCTCATTGTCACCAAACTTTCCCCACTTCA", "fluorescence intensity": "90 a.u."}
{"Strand": "GTCTTGTCTCATTGTCACCTCACTTTCCCCACTTCA", "fluorescence intensity": "85.9 a.u."}
{"Strand": "CGCCTAAGGAAAGAGCCCGTGAAATCATCAACAAGT", "fluorescence intensity": "80.7 a.u."}
{"Strand": "CTAACGAAGGTTTGAAGAGTGGGTGACAAGCCAAGT", "fluorescence intensity": "67.7 a.u."}
{"Strand": "AGGGCGAGGGTGATACTCGTGGGTATGTTTCAATGC", "fluorescence intensity": "67.6 a.u."}
{"Strand": "GCACAGAAGCCCCATCACGTGACAAACAAGTGCTTC", "fluorescence intensity": "10700 a.u."}
{"Strand": "CAGAGTAATGACTGTCATGATGAAGGCAAAAGGAGA", "fluorescence intensity": "79.4 a.u."}
{"data": "Other studies, line by line"}
{"Molecule": "YLREHIRAM", "target": "HLA class I histocompatibility antigen, C alpha chain, allele C*04:01 (Homo sapiens, UniProt P10321)", "test": "peptide-MHC binding", "system": "peptide", "setting": "concentration not given", "measurement": "binding", "value": "inactive"}
{"note": "For quick reference, copied from above (block 1):"}
{"Strand": "UGAG", "4-mer enrichment Z-score": 1.87}
